Published values from different studies.
Lines come from different studies, so protocols differ.
DCN1-like protein 1: DCN1-like protein 1 (Homo sapiens, UniProt Q96GG9)
GLP1R: Glucagon-like peptide 1 receptor (GLP1R, Homo sapiens, UniProt P43220)

Structure (SMILES) | target | test | test system | setting | quantity | value
CCN1C(=O)[C@@H](NC(=O)c2cccc(S(C)(=O)=O)c2)[C@@H](c2ccc(F)cc2)c2c(C)nn(-c3ccccc3)c21 | DCN1-like protein 1 |  |  |  | IC50 | > 15 µM
CC(=O)c1cc(O)c2ccccc2c1O | Genome polyprotein, NS5 methyltransferase domain (pol, Dengue virus type 3, UniProt Q6YMS4) |  |  |  | Kd | 4.6 µM
C[C@H]1CN(c2n[nH]c3nc(N[C@H]4CC[C@H](NS(=O)(=O)CCC(F)(F)F)CC4)ncc23)CCO1 | KHSRP (Homo sapiens, UniProt Q92945) | biochemical |  |  | IC50 | ≥ 20 µM
CC[C@H](C)[C@H](NC(=O)[C@H](Cc1ccccc1)NC(=O)[C@H](CCC(=O)O)NC(=O)[C@H](CCCNC(=N)N)NC(=O)[C@H](C)NC(=O)[C@H](C)NC(=O)[C@H](CCC(N)=O)NC(=O)[C@H](CCCCNc1c(NCCCCCN(O)C(=O)CCC(=O)NCCCCCN(O)C(=O)CCC(=O)NCCCCCN(O)C(C)=O)c(=O)c1=O)NC(=O)[C@H](CCC(=O)O)NC(=O)[C@H](CC(C)C)NC(=O)[C@H](Cc1ccc(O)cc1)NC(=O)[C@H](CO)NC(=O)[C@H](CO)NC(=O)[C@@H](NC(=O)[C@H](CC(=O)O)NC(=O)[C@H](CO)NC(=O)[C@@H](NC(=O)[C@H](Cc1ccccc1)NC(=O)[C@@H](NC(=O)CNC(=O)[C@H](CCC(=O)O)NC(=O)[C@H](C)NC(=O)CCc1cnc[nH]1)[C@@H](C)O)[C@@H](C)O)C(C)C)C(=O)N[C@@H](C)C(=O)N[C@@H](Cc1c[nH]c2ccccc12)C(=O)N[C@@H](CC(C)C)C(=O)N[C@H](C(=O)N[C@@H](CCCNC(=N)N)C(=O)NCC(=O)N[C@@H](CCCNC(=N)N)C(=O)N[C@@H](CCCCNC(=O)COCCOCCNC(=O)COCCOCCNC(=O)CC[C@H](NC(=O)CCCCCCCCCCCCCCCCC(=O)O)C(=O)O)C(=O)NCC(=O)NCC(=O)N[C@@H](CO)C(=O)N[C@@H](CCCCNc1c(NCCCCCN(O)C(=O)CCC(=O)NCCCCCN(O)C(=O)CCC(=O)NCCCCCN(O)C(C)=O)c(=O)c1=O)C(=O)O)C(C)C | GLP1R | cAMP reporter gene, agonist, CRE luciferase | BHK | without Zr, 1% HSA | EC50 | 0.37 nM
COc1cc(Nc2ncc(F)c(Nc3ccc4c(n3)NC(=O)C(C)(C)O4)n2)cc(OC)c1OC | NOS2 (Homo sapiens, UniProt P35228) | enzyme activity, inhibitor |  |  | IC50 | > 10 µM
CC[C@H](C)[C@H](NC(=O)[C@H](Cc1ccccc1)NC(=O)[C@H](CCC(=O)O)NC(=O)[C@H](CCCNC(=N)N)NC(=O)[C@H](C)NC(=O)[C@H](C)NC(=O)[C@H](CCC(N)=O)NC(=O)[C@H](CCC(=O)O)NC(=O)[C@H](CCC(=O)O)NC(=O)[C@H](CC(C)C)NC(=O)[C@H](Cc1ccc(O)cc1)NC(=O)[C@H](CO)NC(=O)[C@H](CO)NC(=O)[C@@H](NC(=O)[C@H](CC(=O)O)NC(=O)[C@H](CO)NC(=O)[C@@H](NC(=O)[C@H](Cc1ccccc1)NC(=O)[C@@H](NC(=O)CNC(=O)[C@H](CCC(=O)O)NC(=O)[C@H](C)NC(=O)CCc1cnc[nH]1)[C@@H](C)O)[C@@H](C)O)C(C)C)C(=O)N[C@@H](C)C(=O)N[C@@H](Cc1c[nH]c2ccccc12)C(=O)N[C@@H](CC(C)C)C(=O)N[C@H](C(=O)N[C@@H](CCCCNc1c(NCCCCCN(O)C(=O)CCC(=O)NCCCCCN(O)C(=O)CCC(=O)NCCCCCN(O)C(C)=O)c(=O)c1=O)C(=O)NCC(=O)N[C@@H](CCCNC(=N)N)C(=O)N[C@@H](CCCCNc1c(NCCCCCN(O)C(=O)CCC(=O)NCCCCCN(O)C(=O)CCC(=O)NCCCCCN(O)C(C)=O)c(=O)c1=O)C(=O)NCC(=O)NCC(=O)N[C@@H](CO)C(=O)N[C@@H](CCCCNC(=O)COCCOCCNC(=O)COCCOCCNC(=O)CC[C@H](NC(=O)CCCCCCCCCCCCCCCCC(=O)O)C(=O)O)C(=O)O)C(C)C | GLP1R | cAMP reporter gene, agonist, CRE luciferase | BHK | with Zr, 0% HSA | EC50 | 0.0069 nM
CC(NC(C)(C)C)C(=O)c1cccc(Cl)c1 (stereo not drawn) | Cytochrome P450 2D6 (CYP2D6, Homo sapiens, UniProt P10635, P34S/S486T) |  |  | pH 7.4 | IC50 | 112 µM
CC[C@H](C)[C@H](NC(=O)[C@H](Cc1ccccc1)NC(=O)[C@H](CCC(=O)O)NC(=O)[C@H](CCCNC(=N)N)NC(=O)[C@H](C)NC(=O)[C@H](C)NC(=O)[C@H](CCC(N)=O)NC(=O)[C@H](CCC(=O)O)NC(=O)[C@H](CCC(=O)O)NC(=O)[C@H](CC(C)C)NC(=O)[C@H](Cc1ccc(O)cc1)NC(=O)[C@H](CO)NC(=O)[C@H](CO)NC(=O)[C@@H](NC(=O)[C@H](CC(=O)O)NC(=O)[C@H](CO)NC(=O)[C@@H](NC(=O)[C@H](Cc1ccccc1)NC(=O)[C@@H](NC(=O)CNC(=O)[C@H](CCC(=O)O)NC(=O)[C@H](C)NC(=O)CCc1cnc[nH]1)[C@@H](C)O)[C@@H](C)O)C(C)C)C(=O)N[C@@H](C)C(=O)N[C@@H](Cc1c[nH]c2ccccc12)C(=O)N[C@@H](CC(C)C)C(=O)N[C@H](C(=O)N[C@@H](CCCCNC(=O)COCCOCCNC(=O)COCCOCCNC(=O)CC[C@H](NC(=O)CCCCCCCCCCCCCCCCC(=O)O)C(=O)O)C(=O)NCC(=O)N[C@@H](CCCNC(=N)N)C(=O)N[C@@H](CCCCNc1c(NCCCCCN(O)C(=O)CCC(=O)NCCCCCN(O)C(=O)CCC(=O)NCCCCCN(O)C(C)=O)c(=O)c1=O)C(=O)NCC(=O)NCC(=O)N[C@@H](CO)C(=O)N[C@@H](CCCCNc1c(NCCCCCN(O)C(=O)CCC(=O)NCCCCCN(O)C(=O)CCC(=O)NCCCCCN(O)C(C)=O)c(=O)c1=O)C(=O)NCC(=O)NCC(=O)N[C@@H](CO)C(=O)N[C@@H](CCCCNc1c(NCCCCCN(O)C(=O)CCC(=O)NCCCCCN(O)C(=O)CCC(=O)NCCCCCN(O)C(C)=O)c(=O)c1=O)C(=O)O)C(C)C | GLP1R | cAMP reporter gene, agonist, CRE luciferase | BHK | without Zr, 1% HSA | EC50 | 0.31 nM
Cc1nn(-c2ccccc2)c2c1[C@H](c1ccc(F)cc1)[C@H](NC(=O)c1cccc(C(F)(F)F)c1)C(=O)N2CCNS(C)(=O)=O | DCN1-like protein 1 |  |  |  | IC50 | > 15 µM

Some of these lines once more:
Structure (SMILES) | target | test | test system | setting | quantity | value
CC[C@H](C)[C@H](NC(=O)[C@H](Cc1ccccc1)NC(=O)[C@H](CCC(=O)O)NC(=O)[C@H](CCCNC(=N)N)NC(=O)[C@H](C)NC(=O)[C@H](C)NC(=O)[C@H](CCC(N)=O)NC(=O)[C@H](CCCCNc1c(NCCCCCN(O)C(=O)CCC(=O)NCCCCCN(O)C(=O)CCC(=O)NCCCCCN(O)C(C)=O)c(=O)c1=O)NC(=O)[C@H](CCC(=O)O)NC(=O)[C@H](CC(C)C)NC(=O)[C@H](Cc1ccc(O)cc1)NC(=O)[C@H](CO)NC(=O)[C@H](CO)NC(=O)[C@@H](NC(=O)[C@H](CC(=O)O)NC(=O)[C@H](CO)NC(=O)[C@@H](NC(=O)[C@H](Cc1ccccc1)NC(=O)[C@@H](NC(=O)CNC(=O)[C@H](CCC(=O)O)NC(=O)[C@H](C)NC(=O)CCc1cnc[nH]1)[C@@H](C)O)[C@@H](C)O)C(C)C)C(=O)N[C@@H](C)C(=O)N[C@@H](Cc1c[nH]c2ccccc12)C(=O)N[C@@H](CC(C)C)C(=O)N[C@H](C(=O)N[C@@H](CCCNC(=N)N)C(=O)NCC(=O)N[C@@H](CCCNC(=N)N)C(=O)N[C@@H](CCCCNC(=O)COCCOCCNC(=O)COCCOCCNC(=O)CC[C@H](NC(=O)CCCCCCCCCCCCCCCCC(=O)O)C(=O)O)C(=O)NCC(=O)NCC(=O)N[C@@H](CO)C(=O)N[C@@H](CCCCNc1c(NCCCCCN(O)C(=O)CCC(=O)NCCCCCN(O)C(=O)CCC(=O)NCCCCCN(O)C(C)=O)c(=O)c1=O)C(=O)O)C(C)C | GLP1R | cAMP reporter gene, agonist, CRE luciferase | BHK | without Zr, 1% HSA | EC50 | 0.37 nM
